Published values gathered from unrelated publications.
Every numbered part comes from another study and shows a few of its results, in no order.

Block 1
Target: RING finger protein unkempt homolog, zinc fingers 1-6, SBP tag (UNK, Homo sapiens, UniProt Q9C0B0, residues 30-357)
UniProt Q9C0B0, sequence (30-357, looked up): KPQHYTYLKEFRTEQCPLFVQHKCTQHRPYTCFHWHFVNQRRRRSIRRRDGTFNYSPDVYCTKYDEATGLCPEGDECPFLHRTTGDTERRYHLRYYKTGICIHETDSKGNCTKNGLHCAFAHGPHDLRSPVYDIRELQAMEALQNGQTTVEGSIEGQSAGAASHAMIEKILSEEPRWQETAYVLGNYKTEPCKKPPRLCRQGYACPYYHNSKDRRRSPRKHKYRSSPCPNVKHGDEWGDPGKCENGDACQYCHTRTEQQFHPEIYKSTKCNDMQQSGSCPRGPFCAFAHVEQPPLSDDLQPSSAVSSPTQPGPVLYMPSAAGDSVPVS
Method: RNA Bind-n-Seq
Form: RNA
Sample: in vitro
Concentration: 100 nM
Setting: RNA with constant flanks, vertebrate orthologous sites, ends assumed
Relative to: input RNA pool
Direction: higher = stronger binding
Constant ends, left off below: GGGAGUUCUACAGUCCGACGAUC … CAACAGAGGAUUGAGCAUCA
Strand	bound/input enrichment [ratio]
AGAGCUCACAAACUGAAAGGAAAACUAUUAAAGAGUUUCUAAUAUUAACUAUUAGAAAGCUAGGAAAGAUUAGGACAAUUUUACAAAUGAGCAAUUAAAAAGAAAAGGAUCUGGGAACUA	0.327
AUUAGAGCUGAAAGAAUAGCAUAGGAGAUUGUGGUCAAAAGUAGGAGCAGUCGAGGAGAGAAAUUACAAAUAUCAAGAACCAGGUGGUUAAAAGUUGGAGGUGUAGGUCAUUGAAAGUCA	0.717
GCACAUGCCACUGUCACCAAAAACGAACUACCACUUUCCAAAUUCCAUUCAGAGCCAUUUUAGUGUUUUCCUAUUCCCUACCCCUCCCACUACUUUCAAUGAUGAAAUACCCUAAGUUCU	2.48
AGCCCCGCUUUUAGGUGUGAUAUCUAGGCUUUCAUUCCAGUUGUUUUUGUCCUUUCUUGUUUAGAUACUGAUCUUUUAAAUUCUUGCAUUUUAGUAAGAAAGCUAUCUUUUUAUGGAUGU	0.732
AGAGGAUUAGGUUCCAUCCUUUACGUGUUUAAAAAAAAGCAUAAAAACAUUUUAAAAACAUAGAAAAAUUCAGCAAACCAUUUUUAAAGUAGAAGAGGGUUUUAGGUAGAAAAACAUAUU	0.828
UUCAGUCACAACUGACUGGUUCACAGCAUUCCUUACAUAGUUAUCUAUCAAAUACAAGUGUAGUUAGCUUUCAGGAAACAACCAGGCAGUCAUCCUUAACCUGUAGCCCAAUUGGAGAUU	1.04
GAAGAUGGUGGUUGUACAUUAUUCAUUUAGAAAAUAUAAAAAUUCAUUUUGUUUUGAAGCUAGUUAUUAAACUGGAAUAGCAGUUAUAUCCCUGAGAAUGGGGCCCUUCUCUUGACAUUC	4.16
AGAGCCCGCUCCCUGCUGCCUGCCGGGUGUGUGACUGAGGGCGGAGCACUCGCCAGCCUGCAGGGAAGCCAUAGUAUUUUUUUUUCCUGCCUCAGACUCCCCAAAGCCUUCAAGCAGAAG	6.76
CAAUUCAAUGGUUGAGGGUUCAGAACUCAAAAAGGUUCGCUCCAACUCUAGAAUAUACCAUAGGUAUUUUUUACUAGAUGCUGACAUGCAAAGCCUGAGGUGGGAGCCAUCUAAGAAGGA	0.268
AAGUAUCCCAGUUUACUGUGUUGAGUUGGCAUUGUACAGAAAUUAACAGCCAUAUUGGUCUAGAAACGUUAAACUUAAUUUUUUUCCAUUUGUACAGGGGUAACGCACUGUAUUAAAUAU	0.706
CUGAAGCUUUGUGUUUGGCUGCACCUGCGUAAGCUGCUACAAAUAGAAUAAAGAAUUUCAUAGCCUGUAUCUAUCAUUUAGAUGCAUGGGAAAUGGGCUUUGCACACAAUGGGUUUGGAG	1.13

Block 2
Target: Fragile X messenger ribonucleoprotein 1, C-terminal low-complexity region (Fmr1, Mus musculus, UniProt P35922)
Method: RNA Bind-n-Seq
Form: RNA
Sample: in vitro
Concentration: 200 nM
Setting: whole 134-nt RNA, ends assumed
Added: 150 mM KCl
Relative to: input library
Direction: higher = stronger binding
Constant ends, left off below: GGGAGUUCUACAGUCCGACGAUC … UGGAAUUCUCGGGUGUCAAGG
Strand	log2 enrichment
CCUGUGCUACACAUCGUAUGUACCGAAUCGGGGAAAGGGGAAAAAAAGGGGUUUUUGGGGAAAGUAUUAUGUUACGCCGUUCGGAUCUGC	0.267
GCAGGAAGUAAAAACAAAUGGAAAUGCUUCGGAUAGUGGCAGGGGUGCGGGUUGCUAAGGAAAGGGUGGGAUGGGAGUGGGUAAAGAGUU	0.312
CAUGUUGAAAGACAUGCUUUUAUUUUUUUGUAAAACAAUAUAGGAGCUGUGUCUACUAUUAAAAGUGAAACAUUUUGGCAUGUUUGUUAA	-1.68
UUUGGUUAUGAACAGGAUUCGGAUUCACGUCUUGCCAACCAAUCGGGGGAGGAUCACUCCAGUGCCCAGGUCUCAGGAACCUCUGUCUUG	-0.342
UCAAGUCCUGUGCUACACAUCGUAUGUACCGAAUCGGGUUUGGGAGGGUUUGGGAAAGUAUUAUGUUACGCCGUUCGGAUCUGCACUUCC	1.24
AGUCCUGUGCUACACAUCGUAUGUACCGAAUCGGGGUUUGGGGUUUUUGGGGAGGGGAAAGUAUUAUGUUACGCCGUUCGGAUCUGCACU	0.987
AGUCCUGUGCUACACAUCGUAUGUACCGAAUCAAACCCCCAAAUUUAAAUUUUUAAAAAAGUAUUAUGUUACGCCGUUCGGAUCUGCACU	0.0809
UCCUGUGCUACACAUCGUAUGUACCGAAUCAAAUUUUUUUAAAUUUUUUUAAAUUUAAAAAAGUAUUAUGUUACGCCGUUCGGAUCUGCA	-0.681
AAGUCCUGUGCUACACAUCGUAUGUACCGAAUCGGGGAGGGGUUUGGGGAAAGGGGAAAGUAUUAUGUUACGCCGUUCGGAUCUGCACUU	0.897
GUCCUGUGCUACACAUCGUAUGUACCGAAUCAAAUUUUUAAAUUUAAACCCCCCCAAAAAAGUAUUAUGUUACGCCGUUCGGAUCUGCAC	0.201
ACCAUGCAGGUGGGCAUCUUUGGGAUGUGGGGCAAGGGGGGGAUAGGGAGGGGGGUAACACUUUGGGAACAGGUGGUCCCAGGUCGUUUC	0.767
UGGCCCUGGUGGCAUGCGGGGAGGAAGAGGUGGCCUCAAGGAUCGUGGUGGUCCCGGUGGAAUGUUCAGAGGUGGCCGUGGUGGAGACAG	0.187
UCCUGUGCUACACAUCGUAUGUACCGAAUCGGGAAAAAGGGAAAAAGGGGAAAAAGGGGAAAGUAUUAUGUUACGCCGUUCGGAUCUGCA	0.24
CAAGUCCUGUGCUACACAUCGUAUGUACCGAAUCGGCCCGGGGCCCGGGCCCGGGAAAGUAUUAUGUUACGCCGUUCGGAUCUGCACUUC	-0.505

Block 3
Target: PABPC1L2, full length, GST fusion (mouse, UniProt A0ABA7IW68)
Method: RNAcompete
Form: RNA
Sample: in vitro
Concentration: 20 nM
Setting: 7-mer, probes averaged, single round
Relative to: mean of 7-mers
Direction: higher = stronger binding
Residues (chain): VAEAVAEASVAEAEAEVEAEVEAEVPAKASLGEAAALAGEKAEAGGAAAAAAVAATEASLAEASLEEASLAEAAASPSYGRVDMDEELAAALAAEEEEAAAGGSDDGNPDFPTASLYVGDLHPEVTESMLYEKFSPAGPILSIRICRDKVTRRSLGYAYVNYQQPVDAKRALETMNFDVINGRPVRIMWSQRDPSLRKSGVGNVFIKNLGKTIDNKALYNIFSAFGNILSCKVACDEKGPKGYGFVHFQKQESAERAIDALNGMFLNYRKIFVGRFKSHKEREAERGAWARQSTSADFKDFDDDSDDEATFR
Strand	7-mer Z-score
CACAGGU	-0.117
AUCUCCG	-0.306
UAACAUA	0.0207
UAUCUAA	-0.0518
AGGAUAU	-0.101
AGAUGCC	-0.278
GAGGAAC	0.16
ACAAAGG	0.657
GAGCGCG	-0.124
AAAGCGA	1.27
CAGCAUA	-0.141
CUGGUUU	-0.407
UACGCGC	-0.262
GCUUACG	-0.253
CCUACGA	-0.171
CGGGCAC	0.0261
UGCUGGA	0.0152
CGUUGAU	-0.293

Block 4
Target: Histone acetyltransferase KAT6A, winged helix 1, GST fusion (KAT6A, Homo sapiens, UniProt Q92794, residues 1-85)
Method: protein binding microarray
Form: double-stranded DNA, one strand shown
Sample: in vitro
Concentration: not given
Setting: 8-mer, flanks averaged, mean of 2 arrays, mostly near background
Relative to: not given
Direction: higher = stronger binding
Residues (chain): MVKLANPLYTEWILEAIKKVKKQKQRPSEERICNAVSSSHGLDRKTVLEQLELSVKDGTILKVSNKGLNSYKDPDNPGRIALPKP
Strand	E-score
CTAGTGTA	-0.0281
TAGACGGA	0.1
GCCAGGGC	0.0207
CTGGGAGC	0.0165
AGAGTGCA	-0.135
GGCTTCAA	0.0195
AATACGTA	0.0223
AGAACATA	0.0109
CATTAACG	-0.038
GCTAAGGA	-0.0169
ATCCGTGG	0.136
ATTAGATG	-0.231
CGCCCATA	0.145
CCGGTACA	0.174
AGGGAAAA	-0.0784
AATATACT	-0.201
CACGCCGA	0.308
GGTTGGCA	-0.197
TTTCCAAA	-0.263
CCAAGCAG	-0.111

Block 5
Target: RNA binding protein fox-1 homolog 2, RRM domain, GST-SBP tag (RBFOX2, Homo sapiens, UniProt O43251-10, residues 100-194)
Method: RNA Bind-n-Seq
Form: RNA
Sample: in vitro
Concentration: 365 nM
Setting: natural RNA segment, single round, ends assumed
Relative to: no-protein control
Direction: higher = stronger binding
Constant ends, left off below: GGGAGUUCUACAGUCCGACGAUC … UGGAAUUCUCGGGUGCCAA
Target sequence (chain): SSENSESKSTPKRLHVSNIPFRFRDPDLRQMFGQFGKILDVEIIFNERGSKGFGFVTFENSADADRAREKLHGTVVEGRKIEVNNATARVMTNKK
Strand	RBNS enrichment (R)
AGUUCACUGUUGUACACAGUCUGUUUUCUAUUUGUUAAGAAAAACUACAGCAUCAUUGCAUAAUUCUUGAUGGUAAUAAAUUUGAAUAAUCAGAUUUCUUACAAACCAGG	1.51
CCCUCCCCAGAAACAGUGUGCAUGGGUUAUUUUGGAGUGUAGGUGACUUGUUUACUCAUUGAAGCAGAUUUCUGCUUCCUUUUAUUUUUAUAGGAAUAGAGGAAGAAAUG	9.99
GUCCUUGAAAGUGGACUGUUCUCAGGCUUGACCUGCCCCACCCCAUCCCCGCGGUUGAGGCUGUGGGGGCAGCAGAUCAGGAGCCCACUGAUAAGGGGCCCUAGGGUACA	0.148
GGUGCCUGGCUUUAACUCCCACCCCUGCUAUGACUCCUCUCUGCAGAGACGCGACUGGCGGCUCCAGCAGGGACUACCUUUCUUAUAAACCCAGGGGGACCACACACACA	0.461
UUUUGUUUUAAGUCUUCAAAUAUCUUGAGAAAUAGUAGACUGUAUGUUGAAAAUUGUACUGAAAUAAAGUAGAAAAUUGUUACGUACCAUAUUUGUAACUAUCAACUUUU	0.694
CACACCGGUGCUGGCCACACCAGCCCCCUUUCACCUCCAGUGCCACAAUAAACCUGUACCCAGCUGUUCUUGUGUGCCCUUCCCCUGUGCAUCCGGAGGGGCAGAAUUUG	0.959
GGGAAAGUAUUUUCAAUAUUUAAAAAAAUUAAGCUGAAGAAAAACUGAUCUUUGAUCCUCCUGUGAAGAUGGACUUGCCUGGCCUUAGUCAUGUGGAAAUGGUGUACCCG	0.762
AUUUUGGAAGUAUAUUCAAUACCAAUGCUGUAUGAGUGGGCUGAAUCCAGUUCAUUGUUUUUUUUUUGGUAAGAAGUGAGACUACAGUUCCAGCUACCUACAUGUCUUUU	0.744
UUGCUACUGACUUUACACAGUUUACAAGUUUCUCUUUGGACAUAUCUGGUAUUAUUACAGAAAUCUCCCAGAUUAUACACAUAAACAUUUUAUGGACAUUUUUUGGGCAU	0.536
GCCCUCUCAUUGACAUGUACACUACUCCUCGCUGCAGGGCACUGUUCCACCUGGAUCCAGUUGCAAAGUUUGGAAAAGUUCUCUUAGUUUUACUGGAUUCUCAGGGAGCC	0.85
AUGUAAGUCUGCUAAAGUUUUUUAGCCCACUUAAAACUUAAGACAACCAUUUAAAAUAAUGGAUGGGUUACUAUGAGCAAUUUCGCUUUCAGAACCCCCUUGUUUUAGUA	0.255
CCAUCACAGUACCAGCCACUGGUCACUCUGACCCUGCUUUGCCAAGAGUCCUUUCUCAGACAACUGAGGGAGUGUUUGGGGUGAUAUCCCAGAGACCUGGAGUUCCAGUG	0.284

Block 6
Target: Sal-like protein 4, full length isoform A (SALL4, Homo sapiens, UniProt Q9UJQ4, residues 1-1053)
UniProt Q9UJQ4, sequence (whole entry, looked up): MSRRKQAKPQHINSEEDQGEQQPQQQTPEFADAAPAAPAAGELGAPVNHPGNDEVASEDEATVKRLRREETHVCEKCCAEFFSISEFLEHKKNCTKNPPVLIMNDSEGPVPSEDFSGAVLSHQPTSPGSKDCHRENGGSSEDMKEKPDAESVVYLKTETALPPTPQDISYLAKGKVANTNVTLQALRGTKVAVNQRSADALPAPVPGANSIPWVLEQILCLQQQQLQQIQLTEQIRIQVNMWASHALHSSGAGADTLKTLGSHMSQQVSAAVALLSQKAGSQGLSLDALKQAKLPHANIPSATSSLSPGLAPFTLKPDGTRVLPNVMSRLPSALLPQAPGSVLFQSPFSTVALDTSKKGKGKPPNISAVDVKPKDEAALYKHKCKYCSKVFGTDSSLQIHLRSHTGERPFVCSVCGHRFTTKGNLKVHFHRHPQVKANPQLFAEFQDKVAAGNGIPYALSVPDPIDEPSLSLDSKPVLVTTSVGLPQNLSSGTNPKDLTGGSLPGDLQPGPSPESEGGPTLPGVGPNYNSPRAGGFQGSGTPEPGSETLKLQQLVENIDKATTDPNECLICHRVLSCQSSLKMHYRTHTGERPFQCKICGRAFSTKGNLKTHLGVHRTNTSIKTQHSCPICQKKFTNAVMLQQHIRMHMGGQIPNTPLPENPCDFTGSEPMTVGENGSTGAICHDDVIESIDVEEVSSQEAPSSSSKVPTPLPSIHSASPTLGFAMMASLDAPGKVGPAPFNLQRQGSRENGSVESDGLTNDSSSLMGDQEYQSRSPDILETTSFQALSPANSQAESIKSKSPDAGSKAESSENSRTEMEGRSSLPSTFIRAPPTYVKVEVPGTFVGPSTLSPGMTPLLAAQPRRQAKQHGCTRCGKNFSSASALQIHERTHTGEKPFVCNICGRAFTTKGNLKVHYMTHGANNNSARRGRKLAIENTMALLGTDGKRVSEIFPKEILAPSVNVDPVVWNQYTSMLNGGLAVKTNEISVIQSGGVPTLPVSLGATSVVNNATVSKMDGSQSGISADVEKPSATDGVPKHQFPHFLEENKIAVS
Method: universal PBM
Form: double-stranded DNA, one strand shown
Sample: in vitro
Concentration: 600 nM
Setting: 8-mer, flanks averaged, mean of replicates
Direction: higher = stronger binding
Strand	E-score
GTACATAA	0.311
AAATTGAC	0.158
ATGGGGAC	-0.143
GGAGCCGA	-0.373
CGATAACA	0.135
AGAATCAC	-0.0486
AGATCACT	0.0955
CACACCCC	-0.151
GCAGCTCA	-0.205
GGCAACGA	-0.123
ATTATCGC	0.333
CTGAAAAA	0.107
AGAATCCC	-0.0653
AGGACTTC	-0.116
AAGACTAT	0.155
AGCTACCT	-0.0547
ATACAAAG	0.304
AAAGTCCT	-0.188
CATATTCA	0.318
CGCTACTC	-0.0692
CCATATGC	0.0843
AAATCGGA	0.128
AGGGAGGA	-0.125
ATGCAGGG	-0.152
GCGTATCA	0.113

Some of these lines once more (block 6):
Strand	E-score
ATGGGGAC	-0.143
GGAGCCGA	-0.373
CGATAACA	0.135
AGAATCAC	-0.0486
AGATCACT	0.0955
CACACCCC	-0.151
GCAGCTCA	-0.205
GGCAACGA	-0.123
ATTATCGC	0.333
CTGAAAAA	0.107
AGAATCCC	-0.0653
AGGACTTC	-0.116
AAGACTAT	0.155
AGCTACCT	-0.0547
ATACAAAG	0.304
